{"data": "Published values pooled from the literature", "note": "Each numbered part is a random draw from the data of one study; scales do not carry over between parts. Positions count from the first letter of the parent shown."}
{"data": "Study 1", "target": "NFE2L3, bZIP domain (human)", "technique": "DHFR protein complementation", "medium": "yeast", "notes": "single substitutions, most at no-binding floor", "reference": "wild-type JUN-FOS pair", "direction": "higher = stronger binding", "starting sequence": "JUN, bZIP domain (human); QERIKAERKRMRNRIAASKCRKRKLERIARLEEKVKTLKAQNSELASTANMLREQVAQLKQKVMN; partner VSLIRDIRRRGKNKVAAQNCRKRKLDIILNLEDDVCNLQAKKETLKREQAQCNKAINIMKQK"}
{"Variant": "K39D", "binding fitness": "-1.5 natural log"}
{"Variant": "I28Y", "binding fitness": "-1.42 natural log"}
{"Variant": "L38P", "binding fitness": "-1.48 natural log"}
{"Variant": "K34S", "binding fitness": "-1.47 natural log"}
{"Variant": "K39V", "binding fitness": "-1.51 natural log"}
{"Variant": "K39G", "binding fitness": "-1.46 natural log"}
{"Variant": "E54S", "binding fitness": "-1.52 natural log"}
{"Variant": "A40E", "binding fitness": "-1.55 natural log"}
{"Variant": "V56T", "binding fitness": "-1.44 natural log"}
{"Variant": "A49K", "binding fitness": "-1.51 natural log"}
{"Variant": "A29R", "binding fitness": "-1.29 natural log"}
{"Variant": "T48P", "binding fitness": "-1.55 natural log"}
{"Variant": "R30P", "binding fitness": "-1.53 natural log"}
{"Variant": "S43Q", "binding fitness": "-1.5 natural log"}
{"Variant": "L59P", "binding fitness": "-1.3 natural log"}
{"Variant": "Q41N", "binding fitness": "-1.52 natural log"}
{"Variant": "E44V", "binding fitness": "-1.52 natural log"}
{"Variant": "L59T", "binding fitness": "-1.45 natural log"}
{"Variant": "A49M", "binding fitness": "-1.54 natural log"}
{"Variant": "K34H", "binding fitness": "-1.54 natural log"}
{"Variant": "E44S", "binding fitness": "-1.42 natural log"}
{"Variant": "K36G", "binding fitness": "-1.44 natural log"}
{"data": "Study 2", "target": "ABI1, truncated, D143A, DHFR fusion (Arabidopsis thaliana)", "technique": "DHFR PCA, deep sequencing", "medium": "yeast", "notes": "methotrexate growth selection, single substitutions", "together with": "(+)-ABA 0 µM", "reference": "wild-type fitted maximum", "direction": "higher = stronger binding", "starting sequence": "PYL1, truncated, DHFR fusion (Arabidopsis thaliana); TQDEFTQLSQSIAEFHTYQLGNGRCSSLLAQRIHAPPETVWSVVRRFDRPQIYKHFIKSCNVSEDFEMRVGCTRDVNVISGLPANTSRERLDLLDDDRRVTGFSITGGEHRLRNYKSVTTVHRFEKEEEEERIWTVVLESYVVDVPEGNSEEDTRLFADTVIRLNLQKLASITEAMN; partner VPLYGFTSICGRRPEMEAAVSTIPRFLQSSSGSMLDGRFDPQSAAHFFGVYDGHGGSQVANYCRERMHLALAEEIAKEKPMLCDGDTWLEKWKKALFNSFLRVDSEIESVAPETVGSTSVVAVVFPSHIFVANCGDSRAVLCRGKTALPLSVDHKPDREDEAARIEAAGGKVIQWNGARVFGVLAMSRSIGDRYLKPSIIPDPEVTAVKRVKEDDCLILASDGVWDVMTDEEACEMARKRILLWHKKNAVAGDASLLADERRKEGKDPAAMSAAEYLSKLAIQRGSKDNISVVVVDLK"}
{"Variant": "A13C", "relative binding score": "5.54%"}
{"Variant": "I33C", "relative binding score": "0.0691%"}
{"Variant": "G71H", "relative binding score": "0.921%"}
{"Variant": "E67H", "relative binding score": "10.9%"}
{"Variant": "F5Q", "relative binding score": "8.71%"}
{"Variant": "T119D", "relative binding score": "-2.74%"}
{"Variant": "I172R", "relative binding score": "0.804%"}
{"Variant": "L164M", "relative binding score": "21%"}
{"Variant": "P37D", "relative binding score": "2.28%"}
{"Variant": "E174H", "relative binding score": "0.385%"}
{"Variant": "Q167C", "relative binding score": "-1.51%"}
{"Variant": "H122I", "relative binding score": "-7.34%"}
{"Variant": "E127R", "relative binding score": "35.4%"}
{"Variant": "N149A", "relative binding score": "54.6%"}
{"Variant": "T6Y", "relative binding score": "37.3%"}
{"Variant": "R163K", "relative binding score": "45.9%"}
{"Variant": "L29C", "relative binding score": "4.25%"}
{"data": "Study 3", "target": "Fragile X messenger ribonucleoprotein 1, C-terminal low-complexity region (Fmr1, Mus musculus, UniProt P35922)", "technique": "RNA Bind-n-Seq", "form": "RNA", "medium": "in vitro", "tested at": "200 nM", "notes": "whole 134-nt RNA, ends assumed", "together with": "150 mM KCl", "reference": "input library", "direction": "higher = stronger binding", "shared flanks, not repeated": "GGGAGUUCUACAGUCCGACGAUC … UGGAAUUCUCGGGUGUCAAGG"}
{"Sequence": "UCCUCAAGUCCUGUGCUACACAUCGUAUGUACCGAAUCGGGCGGCGGCGGGGAAAGUAUUAUGUUACGCCGUUCGGAUCUGCACUUCCAG", "log2 enrichment": 0.33}
{"Sequence": "AAGUCCUGUGCUACACAUCGUAUGUACCGAAUCGGGGAAAGGGGAAAGGAAAGGGGAAAGUAUUAUGUUACGCCGUUCGGAUCUGCACUU", "log2 enrichment": 0.459}
{"Sequence": "CCUGUGCUACACAUCGUAUGUACCGAAUCGGGGAAAGGGGUUUUUUUGGGGAAAAAGGGGAAAGUAUUAUGUUACGCCGUUCGGAUCUGC", "log2 enrichment": 0.246}
{"Sequence": "CCUGUGCUACACAUCGUAUGUACCGAAUCGGGGUUUGGGGUUUUUGGGGUUUUUUUGGGGAAAGUAUUAUGUUACGCCGUUCGGAUCUGC", "log2 enrichment": 0.571}
{"Sequence": "UCAAGUCCUGUGCUACACAUCGUAUGUACCGAAUCGGAAGGGGAAGGGGAAGGGAAAGUAUUAUGUUACGCCGUUCGGAUCUGCACUUCC", "log2 enrichment": 0.794}
{"Sequence": "CACAGACAACACGCACCCACACAGACACAGAGGGAAGGGGUUGGGAUGGGGACAGGGUGCACAGCAGGGCGGGGUAGGACCCCAAAACCU", "log2 enrichment": 1.19}
{"Sequence": "AAGUCCUGUGCUACACAUCGUAUGUACCGAAUCGGAAAAAGGAAAGGUUUUUUUGGAAAGUAUUAUGUUACGCCGUUCGGAUCUGCACUU", "log2 enrichment": -1.27}
{"Sequence": "GUCCUGUGCUACACAUCGUAUGUACCGAAUCGGGAAAGGGUUUUUGGGAAAAAAAGGGAAAGUAUUAUGUUACGCCGUUCGGAUCUGCAC", "log2 enrichment": -0.208}
{"Sequence": "AGUCCUGUGCUACACAUCGUAUGUACCGAAUCGGGGUUUGGGGAGGGGAAAAAGGGGAAAGUAUUAUGUUACGCCGUUCGGAUCUGCACU", "log2 enrichment": 0.44}
{"data": "Study 4", "target": "Sal-like protein 4, full length isoform B (SALL4, Homo sapiens, UniProt Q9UJQ4-2, residues 1-616)", "technique": "universal PBM", "form": "double-stranded DNA, one strand shown", "medium": "in vitro", "tested at": "not given", "notes": "8-mer, flanks averaged, mean of replicates", "direction": "higher = stronger binding", "Construct (chain)": "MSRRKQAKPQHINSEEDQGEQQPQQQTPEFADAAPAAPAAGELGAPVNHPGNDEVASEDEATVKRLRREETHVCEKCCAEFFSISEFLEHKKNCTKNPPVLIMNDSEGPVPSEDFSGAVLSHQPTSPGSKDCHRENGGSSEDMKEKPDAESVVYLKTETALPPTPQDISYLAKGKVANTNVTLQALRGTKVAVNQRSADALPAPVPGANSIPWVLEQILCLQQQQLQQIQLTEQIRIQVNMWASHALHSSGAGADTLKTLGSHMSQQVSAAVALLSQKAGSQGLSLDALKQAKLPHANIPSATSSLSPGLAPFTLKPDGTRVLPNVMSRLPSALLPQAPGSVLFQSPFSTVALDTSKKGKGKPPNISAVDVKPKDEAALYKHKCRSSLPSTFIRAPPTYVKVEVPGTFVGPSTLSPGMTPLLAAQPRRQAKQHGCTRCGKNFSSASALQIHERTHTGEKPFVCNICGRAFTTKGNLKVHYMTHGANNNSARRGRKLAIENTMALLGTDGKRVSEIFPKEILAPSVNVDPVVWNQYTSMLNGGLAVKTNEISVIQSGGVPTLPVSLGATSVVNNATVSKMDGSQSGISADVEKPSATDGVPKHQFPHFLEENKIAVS"}
{"Sequence": "CGGTTGTC", "E-score": -0.102}
{"Sequence": "AAGGCGCA", "E-score": -0.153}
{"Sequence": "CAGAGGAG", "E-score": -0.136}
{"Sequence": "CGAGTACG", "E-score": -0.151}
{"Sequence": "ATCTCTCA", "E-score": 0.0467}
{"Sequence": "TAACTTCA", "E-score": 0.213}
{"Sequence": "AAGATACC", "E-score": 0.114}
{"Sequence": "AATATAAA", "E-score": 0.431}
{"Sequence": "GATATTGC", "E-score": 0.205}
{"Sequence": "ACGTAGCT", "E-score": -0.0187}
{"Sequence": "CATCCAAC", "E-score": 0.0197}
{"Sequence": "CTTACCTA", "E-score": 0.0278}
{"Sequence": "GCTCCCAA", "E-score": -0.169}
{"Sequence": "AACTTGGC", "E-score": -0.0325}
{"Sequence": "ACTTATGA", "E-score": 0.318}
{"Sequence": "AGTGTTCA", "E-score": 0.0795}
{"Sequence": "ATGATCCA", "E-score": 0.0256}
{"Sequence": "AACACACA", "E-score": 0.112}
{"Sequence": "AAGAGGAA", "E-score": -0.0259}
{"Sequence": "ACGTAAAC", "E-score": 0.0223}
{"Sequence": "CATGACCC", "E-score": -0.0578}
{"Sequence": "ATTGGCAA", "E-score": 0.225}
{"data": "Study 5", "target": "CCNB1, cyclin fold, Cln2 fusion (human)", "technique": "yeast growth competition, sequencing", "medium": "yeast", "notes": "strong parent motif", "reference": "not given", "direction": "higher = stronger binding", "starting sequence": "INSM1 docking peptide (human); PKAIRKLHFEDEV"}
{"Variant": "PKNIRKLHFEDEV [A3N]", "normalised enrichment score": 0.388}
{"Variant": "PKWIRKLHFEDEV [A3W]", "normalised enrichment score": 3.35}
{"Variant": "PKYIRKLHFEDEV [A3Y]", "normalised enrichment score": 2.04}
{"Variant": "PKAIRKLKFEDEV [H8K]", "normalised enrichment score": 1.97}
{"Variant": "PKAIRKLHFWDEV [E10W]", "normalised enrichment score": 1.03}
{"Variant": "PKAIYKLHFEDEV [R5Y]", "normalised enrichment score": 0.443}
{"Variant": "PKAIRKLHVEDEV [F9V]", "normalised enrichment score": 0.206}
{"Variant": "PKAIRKYHFEDEV [L7Y]", "normalised enrichment score": 0.0539}
{"Variant": "PKAIQKLHFEDEV [R5Q]", "normalised enrichment score": 1.57}
{"Variant": "PKAIRKLHFPDEV [E10P]", "normalised enrichment score": 2.1}
{"Variant": "PKLIRKLHFEDEV [A3L]", "normalised enrichment score": 4.02}
{"Variant": "PKAIRKLHIEDEV [F9I]", "normalised enrichment score": -0.125}
{"Variant": "PKACRKLHFEDEV [I4C]", "normalised enrichment score": 2.62}
{"Variant": "PKAIRKLHFEDSV [E12S]", "normalised enrichment score": 1.48}
{"Variant": "PKAIRKLMFEDEV [H8M]", "normalised enrichment score": 2.29}
{"Variant": "PKTIRKLHFEDEV [A3T]", "normalised enrichment score": 3.59}
{"Variant": "PKAIRLLHFEDEV [K6L]", "normalised enrichment score": 0.333}
{"Variant": "PKAIRKLHFIDEV [E10I]", "normalised enrichment score": 0.92}
{"Variant": "PKAIRKFHFEDEV [L7F]", "normalised enrichment score": -0.318}
{"Variant": "PKVIRKLHFEDEV [A3V]", "normalised enrichment score": 5.92}
{"Variant": "PQAIRKLHFEDEV [K2Q]", "normalised enrichment score": 3.51}
{"Variant": "PKAIRKTHFEDEV [L7T]", "normalised enrichment score": 0.41}
{"Variant": "PKANRKLHFEDEV [I4N]", "normalised enrichment score": 2.05}
{"Variant": "PKAICKLHFEDEV [R5C]", "normalised enrichment score": 2.21}
{"Variant": "PIAIRKLHFEDEV [K2I]", "normalised enrichment score": 2.53}
{"note": "A few entries again (study 5):"}
{"Variant": "PKAIRKLKFEDEV [H8K]", "normalised enrichment score": 1.97}
{"Variant": "PKAIRKLHFWDEV [E10W]", "normalised enrichment score": 1.03}
{"Variant": "PKAIYKLHFEDEV [R5Y]", "normalised enrichment score": 0.443}
{"Variant": "PKAIRKLHVEDEV [F9V]", "normalised enrichment score": 0.206}
{"Variant": "PKAIRKYHFEDEV [L7Y]", "normalised enrichment score": 0.0539}
